Measurements collected from several papers.
Each line is one published result; not all experiments were run side by side.
ampC: Beta-lactamase (ampC, Escherichia coli K-12, UniProt P00811)
Chain of UniProt P00811 (whole entry, looked up): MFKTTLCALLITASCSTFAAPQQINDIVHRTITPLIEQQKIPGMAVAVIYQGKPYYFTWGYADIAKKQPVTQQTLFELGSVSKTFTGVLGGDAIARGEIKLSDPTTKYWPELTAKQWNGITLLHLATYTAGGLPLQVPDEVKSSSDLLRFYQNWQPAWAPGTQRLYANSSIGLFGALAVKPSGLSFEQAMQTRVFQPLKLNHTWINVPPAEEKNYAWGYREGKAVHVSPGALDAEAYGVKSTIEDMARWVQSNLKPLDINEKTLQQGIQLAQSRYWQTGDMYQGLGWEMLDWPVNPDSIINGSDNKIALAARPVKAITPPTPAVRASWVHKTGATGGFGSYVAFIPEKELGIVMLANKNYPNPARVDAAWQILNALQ
HLA class I histocompatibility antigen, A alpha chain allele A*02:01: HLA class I histocompatibility antigen, A alpha chain, allele A*02:01 (Homo sapiens, UniProt P04439)
Chain of UniProt P03023 (whole entry, unmodified, looked up): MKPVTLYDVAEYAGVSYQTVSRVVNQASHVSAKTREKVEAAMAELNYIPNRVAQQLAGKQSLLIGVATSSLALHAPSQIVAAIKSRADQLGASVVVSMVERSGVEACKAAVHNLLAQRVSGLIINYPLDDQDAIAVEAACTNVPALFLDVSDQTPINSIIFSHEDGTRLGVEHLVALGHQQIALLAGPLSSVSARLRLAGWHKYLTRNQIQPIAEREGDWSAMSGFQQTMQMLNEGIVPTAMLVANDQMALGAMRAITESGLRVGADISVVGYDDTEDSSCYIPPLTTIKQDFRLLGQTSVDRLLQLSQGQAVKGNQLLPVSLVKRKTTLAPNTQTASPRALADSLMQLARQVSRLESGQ
Chain of UniProt Q99685 (whole entry, looked up): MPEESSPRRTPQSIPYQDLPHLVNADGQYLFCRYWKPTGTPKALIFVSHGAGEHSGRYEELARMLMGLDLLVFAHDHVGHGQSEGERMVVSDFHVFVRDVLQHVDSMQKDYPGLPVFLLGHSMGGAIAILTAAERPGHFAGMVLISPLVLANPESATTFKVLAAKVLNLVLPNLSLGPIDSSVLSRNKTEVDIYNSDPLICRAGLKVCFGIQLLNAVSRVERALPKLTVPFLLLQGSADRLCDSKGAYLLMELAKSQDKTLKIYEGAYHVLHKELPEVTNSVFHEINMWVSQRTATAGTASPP
Chain of UniProt P07947 (whole entry, looked up): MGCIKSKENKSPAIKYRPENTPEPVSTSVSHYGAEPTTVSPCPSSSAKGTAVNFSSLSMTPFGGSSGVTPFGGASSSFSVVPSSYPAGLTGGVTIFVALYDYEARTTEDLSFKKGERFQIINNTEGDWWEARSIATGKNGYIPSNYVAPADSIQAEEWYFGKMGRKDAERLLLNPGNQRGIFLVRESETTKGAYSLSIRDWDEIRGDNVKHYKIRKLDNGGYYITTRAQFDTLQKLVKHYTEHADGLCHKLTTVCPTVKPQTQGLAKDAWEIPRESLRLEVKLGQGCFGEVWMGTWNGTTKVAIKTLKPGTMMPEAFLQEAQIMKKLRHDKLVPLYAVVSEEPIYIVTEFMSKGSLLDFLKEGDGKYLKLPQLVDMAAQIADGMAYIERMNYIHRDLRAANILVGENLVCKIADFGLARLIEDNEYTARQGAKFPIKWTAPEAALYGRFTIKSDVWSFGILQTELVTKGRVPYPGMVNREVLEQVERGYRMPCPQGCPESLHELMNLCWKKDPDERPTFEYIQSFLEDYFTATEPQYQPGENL
Chain of UniProt Q9ULK4 (whole entry, looked up): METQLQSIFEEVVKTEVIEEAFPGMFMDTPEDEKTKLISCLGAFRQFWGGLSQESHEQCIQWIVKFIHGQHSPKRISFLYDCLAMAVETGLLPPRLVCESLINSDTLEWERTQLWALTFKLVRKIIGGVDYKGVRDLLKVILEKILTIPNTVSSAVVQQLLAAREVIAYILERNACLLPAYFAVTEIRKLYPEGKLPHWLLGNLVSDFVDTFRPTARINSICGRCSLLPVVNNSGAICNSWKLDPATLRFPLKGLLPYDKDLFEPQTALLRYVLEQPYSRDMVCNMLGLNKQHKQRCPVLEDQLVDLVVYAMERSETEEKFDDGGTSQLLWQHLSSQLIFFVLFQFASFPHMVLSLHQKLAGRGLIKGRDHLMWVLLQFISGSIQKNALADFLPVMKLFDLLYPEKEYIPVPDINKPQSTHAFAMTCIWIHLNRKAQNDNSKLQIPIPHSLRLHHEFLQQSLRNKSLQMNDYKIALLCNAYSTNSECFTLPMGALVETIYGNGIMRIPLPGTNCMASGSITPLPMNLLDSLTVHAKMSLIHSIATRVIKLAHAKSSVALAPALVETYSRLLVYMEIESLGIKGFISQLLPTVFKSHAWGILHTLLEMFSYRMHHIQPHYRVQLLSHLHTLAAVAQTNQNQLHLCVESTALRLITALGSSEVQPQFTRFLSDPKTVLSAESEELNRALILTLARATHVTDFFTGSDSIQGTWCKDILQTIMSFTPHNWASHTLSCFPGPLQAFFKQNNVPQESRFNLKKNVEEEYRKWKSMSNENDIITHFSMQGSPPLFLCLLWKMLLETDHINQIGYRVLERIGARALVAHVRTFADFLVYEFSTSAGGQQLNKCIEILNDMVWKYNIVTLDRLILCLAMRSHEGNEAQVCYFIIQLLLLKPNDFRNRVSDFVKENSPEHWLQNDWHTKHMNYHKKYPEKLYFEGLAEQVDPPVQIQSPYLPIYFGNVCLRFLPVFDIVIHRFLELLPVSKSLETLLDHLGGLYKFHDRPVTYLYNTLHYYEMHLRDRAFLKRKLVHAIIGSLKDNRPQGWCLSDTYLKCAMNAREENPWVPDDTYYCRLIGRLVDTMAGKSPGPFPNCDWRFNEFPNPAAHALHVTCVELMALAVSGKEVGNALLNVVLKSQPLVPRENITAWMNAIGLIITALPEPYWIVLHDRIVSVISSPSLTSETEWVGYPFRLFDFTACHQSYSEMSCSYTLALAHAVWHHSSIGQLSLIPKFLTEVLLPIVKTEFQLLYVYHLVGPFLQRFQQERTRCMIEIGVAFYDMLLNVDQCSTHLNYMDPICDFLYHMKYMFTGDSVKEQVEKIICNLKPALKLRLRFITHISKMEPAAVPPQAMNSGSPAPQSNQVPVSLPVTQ
Chain of UniProt P32246 (whole entry, looked up): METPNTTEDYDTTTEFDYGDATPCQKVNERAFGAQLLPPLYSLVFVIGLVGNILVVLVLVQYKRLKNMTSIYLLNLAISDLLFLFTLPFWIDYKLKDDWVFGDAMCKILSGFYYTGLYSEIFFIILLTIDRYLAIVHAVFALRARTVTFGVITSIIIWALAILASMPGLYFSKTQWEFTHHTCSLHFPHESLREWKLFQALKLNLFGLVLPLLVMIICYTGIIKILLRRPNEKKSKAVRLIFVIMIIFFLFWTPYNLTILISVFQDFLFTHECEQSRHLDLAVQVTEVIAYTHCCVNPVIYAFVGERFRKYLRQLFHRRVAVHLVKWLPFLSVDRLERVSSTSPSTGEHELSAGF
Chain of UniProt P51451 (whole entry, looked up): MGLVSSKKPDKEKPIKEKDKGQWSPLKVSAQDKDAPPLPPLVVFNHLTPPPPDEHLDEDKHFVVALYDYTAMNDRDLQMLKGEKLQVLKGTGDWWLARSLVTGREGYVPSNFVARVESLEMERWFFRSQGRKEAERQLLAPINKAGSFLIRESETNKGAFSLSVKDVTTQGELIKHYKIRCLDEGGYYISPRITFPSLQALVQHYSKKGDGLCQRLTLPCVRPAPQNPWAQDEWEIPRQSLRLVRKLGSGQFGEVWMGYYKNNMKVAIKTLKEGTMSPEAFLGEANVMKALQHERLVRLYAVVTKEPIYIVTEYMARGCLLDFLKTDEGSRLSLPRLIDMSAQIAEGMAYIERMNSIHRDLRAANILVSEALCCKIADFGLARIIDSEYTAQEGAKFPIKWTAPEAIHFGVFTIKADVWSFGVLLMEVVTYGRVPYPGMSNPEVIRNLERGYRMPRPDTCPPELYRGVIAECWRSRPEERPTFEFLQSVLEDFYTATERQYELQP

| SMILES | target | test | setting | measurement | value |
| --- | --- | --- | --- | --- | --- |
| Cc1ccsc1C(Cc1ccccc1)NS(=O)(=O)c1cnn(C)c1C(=O)O (stereo not shown) | ampC | – | – | Ki | 224 µM |
| CSCC[C@H](NC(=O)[C@H](CCC(N)=O)NC(=O)[C@@H](N)CCCCN)C(=O)NCC(=O)N[C@@H](Cc1c[nH]cn1)C(=O)N[C@@H](CC(C)C)C(=O)N[C@@H](CC(C)C)C(=O)N[C@H](C(=O)N[C@@H](Cc1ccccc1)C(=O)O)[C@@H](C)O | HLA class I histocompatibility antigen, A alpha chain allele A*02:01 | binding | – | IC50 | 6.85 µM |
| C[C@H]1CN(c2n[nH]c3nc(N[C@H]4CC[C@H](NS(=O)(=O)CCC(F)(F)F)CC4)ncc23)CCO1 | MED23 (Homo sapiens, UniProt Q9ULK4) | biochemical | – | IC50 | ≥ 20 µM |
| CC[C@H](C)[C@H](NC(=O)[C@H](CCCCN)NC(=O)[C@H](CO)NC(=O)[C@H](Cc1ccccc1)NC(=O)[C@H](CCSC)NC(=O)[C@@H](N)CCCCN)C(=O)N[C@@H](CCSC)C(=O)N[C@H](C(=O)N[C@@H](Cc1ccc(O)cc1)C(=O)O)[C@@H](C)O | HLA class I histocompatibility antigen, A alpha chain allele A*02:01 | binding | – | IC50 | 2.51 µM |
| CC[C@H](C)[C@H](NC(=O)c1ccc2c(c1)C(=O)OC21c2ccc(N(C)C)cc2Oc2cc(N(C)C)ccc21)C(=O)N[C@@H](Cc1ccccc1)C(=O)N[C@@H](CO)C(=O)N[C@H](C(=O)N[C@@H](Cc1ccccc1)C(=O)N[C@H](C(=O)NCC(=O)N[C@@H](CCC(=O)O)C(=O)N[C@@H](Cc1c[nH]cn1)C(=O)N[C@@H](Cc1ccc(OP(=O)(O)O)cc1)C(=O)N[C@H](C(=O)N[C@@H](Cc1c[nH]cn1)C(=O)N[C@H](C(=O)N[C@@H](CC(N)=O)C(=O)N[C@@H](C)C(=O)N[C@H](C(=O)N[C@@H](Cc1ccc(O)cc1)C(=O)N[C@@H](CC(=O)O)C(=O)O)[C@@H](C)O)C(C)C)C(C)C)[C@@H](C)CC)[C@@H](C)O | Tyrosine-protein kinase Yes, SH2 domain (YES1, Homo sapiens, UniProt P07947) | binding | – | Kd | 0.195 µM |
| COC(=O)c1cc(NS(=O)(=O)c2cc(Cl)cc(Cl)c2O)cnc1OC | ampC | – | – | Ki | 72.9 µM |
| CSCC[C@H](NC(=O)[C@@H](NC(=O)[C@@H]1CCCN1C(=O)[C@@H]1CCCN1C(=O)[C@H](CC(=O)O)NC(=O)[C@@H](NC(=O)[C@@H](N)CCCCN)C(C)C)C(C)C)C(=O)N[C@@H](CCC(=O)O)C(=O)N[C@@H](Cc1ccccc1)C(=O)O | HLA class I histocompatibility antigen, A alpha chain, allele A*24:02 (Homo sapiens, UniProt P04439) | binding | – | IC50 | 55.7 µM |
| C[C@H]1O[C@@H](Oc2ccccc2[N+](=O)[O-])[C@H](O)[C@@H](O)[C@H]1O | lacI (Escherichia coli, UniProt P03023, D149A/N125A) | operator DNA binding, nitrocellulose filter binding | together with: O1 operator DNA | EC50 | > 100 µM |
| CC[C@H](C)[C@H](NC(=O)[C@H](Cc1ccccc1)NC(=O)[C@@H]1CCCN1C(=O)CNC(=O)[C@H](Cc1ccc(O)cc1)NC(=O)[C@H](CCSC)NC(=O)[C@@H](N)CCCNC(=N)N)C(=O)N[C@@H](Cc1c[nH]cn1)C(=O)N[C@@H](Cc1ccccc1)C(=O)O | HLA class I histocompatibility antigen, A alpha chain allele A*02:01 | binding | – | IC50 | 1.89 µM |
| COc1cc(Nc2ncc(F)c(Nc3ccc4c(n3)NC(=O)C(C)(C)O4)n2)cc(OC)c1OC | CCR1 (Homo sapiens, UniProt P32246) | – | – | IC50 | > 10 µM |
| CC[C@H](C)[C@H](NC(=O)[C@H](CC(=O)O)NC(=O)[C@H](C)NC(=O)[C@H](Cc1ccc(OP(=O)(O)O)cc1)NC(=O)[C@H](CCCCN)NC(=O)[C@@H](NC(=O)[C@H](CC(=O)O)NC(=O)CNC(=O)[C@H](CCCCN)NC(=O)[C@H](CCSC)NC(=O)[C@H](CC(=O)O)NC(=O)[C@H](CC(C)C)NC(=O)[C@H](CCSC)NC(=O)c1ccc2c(c1)C(=O)OC21c2ccc(N(C)C)cc2Oc2cc(N(C)C)ccc21)C(C)C)C(=O)N[C@@H](CCC(=O)O)C(=O)N[C@@H](CO)C(=O)N[C@@H](CO)C(=O)N[C@@H](CC(N)=O)C(=O)N[C@@H](CC(=O)O)C(=O)O | Tyrosine-protein kinase Blk, SH2 domain (BLK, Homo sapiens, UniProt P51451) | binding | – | Kd | 0.761 µM |
| O=C(OC(C(F)(F)F)C(F)(F)F)N1CCN(Cc2cccc(Oc3ccccc3)c2)CC1 | MGLL (Homo sapiens, UniProt Q99685) | enzyme activity, inhibitor | together with: FP-biotin 1 µM | IC50 | 0.0537 µM |
| CCCOC(=O)C(Cc1ccoc1)NS(=O)(=O)c1cccc(Cl)c1O (stereo not shown) | ampC | – | – | Ki | 170 µM |
| OC[C@H]1O[C@@H](OCCc2ccccc2)[C@H](O)[C@@H](O)[C@H]1O | lacI (Escherichia coli, UniProt P03023, D149C/N125C) | operator DNA release, nitrocellulose filter binding | together with: O1 operator DNA | EC50 | > 1000 µM |
| CSCC[C@H](NC(=O)[C@H](Cc1ccc(O)cc1)NC(=O)[C@@H](NC(=O)[C@@H]1CCCN1C(=O)[C@H](Cc1ccc(O)cc1)NC(=O)[C@H](CCC(N)=O)NC(=O)[C@@H](N)Cc1c[nH]cn1)C(C)C)C(=O)N[C@@H](CCC(N)=O)C(=O)N[C@@H](Cc1ccc(O)cc1)C(=O)O | HLA class I histocompatibility antigen, A alpha chain, allele A*01:01 (Homo sapiens, UniProt P04439) | binding | – | IC50 | 63.3 µM |
| Cn1ncc(S(=O)(=O)NCc2ccc3c(c2)OC(C)(C)O3)c1C(=O)O | ampC | – | – | Ki | 194 µM |

Some of these lines once more:
| SMILES | target | test | setting | measurement | value |
| --- | --- | --- | --- | --- | --- |
| COc1cc(Nc2ncc(F)c(Nc3ccc4c(n3)NC(=O)C(C)(C)O4)n2)cc(OC)c1OC | CCR1 (Homo sapiens, UniProt P32246) | – | – | IC50 | > 10 µM |
| CC[C@H](C)[C@H](NC(=O)[C@H](CC(=O)O)NC(=O)[C@H](C)NC(=O)[C@H](Cc1ccc(OP(=O)(O)O)cc1)NC(=O)[C@H](CCCCN)NC(=O)[C@@H](NC(=O)[C@H](CC(=O)O)NC(=O)CNC(=O)[C@H](CCCCN)NC(=O)[C@H](CCSC)NC(=O)[C@H](CC(=O)O)NC(=O)[C@H](CC(C)C)NC(=O)[C@H](CCSC)NC(=O)c1ccc2c(c1)C(=O)OC21c2ccc(N(C)C)cc2Oc2cc(N(C)C)ccc21)C(C)C)C(=O)N[C@@H](CCC(=O)O)C(=O)N[C@@H](CO)C(=O)N[C@@H](CO)C(=O)N[C@@H](CC(N)=O)C(=O)N[C@@H](CC(=O)O)C(=O)O | Tyrosine-protein kinase Blk, SH2 domain (BLK, Homo sapiens, UniProt P51451) | binding | – | Kd | 0.761 µM |
